Experimental data collected from several papers.
Protocols differ between the studies behind these lines. ± gives the spread as reported.
Matrix: plasma

CC(C)C[C@H](NC(=O)[C@H](CCCN)NC(=O)CNC(=O)[C@@H](NC(=O)[C@H](C)NC(=O)[C@@H]1CSCSC[C@H](NC(=O)CC[C@H](N)C(=O)O)C(=O)N[C@@H](CC(N)=O)C(=O)N[C@@H]([C@@H](C)O)C(=O)N[C@@H](C)C(=O)N[C@@H]([C@@H](C)O)C(=O)N1)[C@@H](C)O)C(=O)N[C@@H](C)C(=O)N[C@@H](CCC(=O)O)C(=O)N[C@@](C)(Cc1ccccc1)C(=O)N[C@@H](CC(C)C)C(=O)N[C@H](C(=O)N[C@@H](CCCNC(=N)N)C(=O)N[C@@H](CO)C(=O)N[C@@H](CO)C(=O)N[C@@H](CC(N)=O)C(=O)N(C)[C@@H](CC(N)=O)C(=O)N[C@@H](Cc1ccccc1)C(=O)NCC(=O)N1CCC[C@H]1C(=O)N[C@@H](CCCCNC(=O)CC[C@H](NC(=O)CC[C@H](NC(=O)CCCCCCCCCCCCCCCCCCC(=O)O)C(=O)O)C(=O)O)C(=O)N[C@@H](CC(C)C)C(=O)N1CCC[C@H]1C(=O)N1CCC[C@H]1C(=O)N[C@H](C(=O)N[C@@H](CCC(=O)O)C(=O)N[C@H](C(=O)NCC(=O)N[C@@H](CO)C(=O)N[C@@H](CC(N)=O)C(=O)N[C@H](C(=O)N[C@@H](Cc1ccc(O)cc1)C(N)=O)[C@@H](C)O)C(C)C)[C@@H](C)O)C(C)C
Cmax (healthy human; subcutaneous, 0.04 mg single dose, geometric LS mean): 4.4 ng/mL

CC1(C)CC[C@]2(NC(=O)C(C)(F)F)CC[C@]3(C)[C@H](C(=O)C=C4[C@@]5(C)C=C(C#N)C(=O)C(C)(C)[C@@H]5CC[C@]43C)[C@@H]2C1
Cmax (human; dose not given, together with: gemfibrozil; reference: without gemfibrozil): no effect

C[C@H](CCC(=O)NCC(=O)O)[C@H]1CC[C@H]2[C@@H]3[C@H](O)C[C@@H]4C[C@H](OS(=O)(=O)O)CC[C@]4(C)[C@H]3CC[C@]12C
Cmax (human; concentration not given, endogenous control diurnal): 169 ± 41 nM

COc1cc2c(cc1O)CCN1C[C@@H](CC(C)C)[C@@H](O)C[C@H]21
Cmax (refers to: non-deuterated analyte; healthy human male; oral, 25 mg, geometric mean, [14C]-tetrabenazine dosed): 8.03 ng/mL

CCOc1cc(CC(=O)N[C@@H](CC(C)C)c2ccccc2N2CCCCC2)ccc1C(=O)O
Cmax (human; oral, dose not given, geometric least-squares mean, alone): 20.6 ng/mL

C[C@]12C[C@H](c3ccc(S(C)(=O)=O)cc3)[C@@H]3C4=C(CC[C@H]3[C@@H]1CC[C@@]2(O)C(F)(F)C(F)(F)F)C(=O)[C@H](O)CC4
Cmax (human; oral, 5 mg multiple doses, day 28): 3.68 ng/mL

COc1cc2c(cc1OC)[C@H]1C[C@@H](O)[C@H](CC(C)C)CN1CC2
Cmax (refers to: non-deuterated analyte; healthy human male; oral, 25 mg, geometric mean, [14C]-tetrabenazine dosed): 17.6 ng/mL

CN(C(=O)C(C)(C)c1cc(C(F)(F)F)cc(C(F)(F)F)c1)c1cnc(N2C[C@H]3COC(O)CN3C[C@H]2CO)cc1-c1ccc(F)cc1CO (stereo partly shown)
Cmax (human; oral, 120 mg, geometric mean): 91.3 ng/mL

CCCCCCCOc1ccc(CC[C@](N)(CO)COP(=O)(O)O)cc1C(F)(F)F
Cmax (healthy male humans; oral, 0.75 mg amiselimod, day 1, mean): 1.76 ng/mL

CC[C@H](C)[C@@H]1NC(=O)[C@H](Cc2ccc(O)cc2)NC(=O)CCCSC[C@@H](C(=O)N(CC(=O)N[C@@H](CC(C)C)C(=O)NCC(N)=O)Cc2ccc(F)cc2)NC(=O)[C@H](CC(N)=O)NC(=O)[C@H](CCC(N)=O)NC1=O
Cmax (healthy human; intranasal, 50 µg every 3 h, after last dose): 0.039 ng/mL

Some of these lines once more:
CC(C)C[C@H](NC(=O)[C@H](CCCN)NC(=O)CNC(=O)[C@@H](NC(=O)[C@H](C)NC(=O)[C@@H]1CSCSC[C@H](NC(=O)CC[C@H](N)C(=O)O)C(=O)N[C@@H](CC(N)=O)C(=O)N[C@@H]([C@@H](C)O)C(=O)N[C@@H](C)C(=O)N[C@@H]([C@@H](C)O)C(=O)N1)[C@@H](C)O)C(=O)N[C@@H](C)C(=O)N[C@@H](CCC(=O)O)C(=O)N[C@@](C)(Cc1ccccc1)C(=O)N[C@@H](CC(C)C)C(=O)N[C@H](C(=O)N[C@@H](CCCNC(=N)N)C(=O)N[C@@H](CO)C(=O)N[C@@H](CO)C(=O)N[C@@H](CC(N)=O)C(=O)N(C)[C@@H](CC(N)=O)C(=O)N[C@@H](Cc1ccccc1)C(=O)NCC(=O)N1CCC[C@H]1C(=O)N[C@@H](CCCCNC(=O)CC[C@H](NC(=O)CC[C@H](NC(=O)CCCCCCCCCCCCCCCCCCC(=O)O)C(=O)O)C(=O)O)C(=O)N[C@@H](CC(C)C)C(=O)N1CCC[C@H]1C(=O)N1CCC[C@H]1C(=O)N[C@H](C(=O)N[C@@H](CCC(=O)O)C(=O)N[C@H](C(=O)NCC(=O)N[C@@H](CO)C(=O)N[C@@H](CC(N)=O)C(=O)N[C@H](C(=O)N[C@@H](Cc1ccc(O)cc1)C(N)=O)[C@@H](C)O)C(C)C)[C@@H](C)O)C(C)C
Cmax (healthy human; subcutaneous, 0.04 mg single dose, geometric LS mean): 4.4 ng/mL

CC1(C)CC[C@]2(NC(=O)C(C)(F)F)CC[C@]3(C)[C@H](C(=O)C=C4[C@@]5(C)C=C(C#N)C(=O)C(C)(C)[C@@H]5CC[C@]43C)[C@@H]2C1
Cmax (human; dose not given, together with: gemfibrozil; reference: without gemfibrozil): no effect
